{"data": "Experimental data from different studies", "cell line": "HeLa", "note": "Protocols differ between the studies behind these lines. Numbers after ± are the reported error."}
{"SMILES": "Cc1cc(/C=C2\\CN(C(C)C)C/C(=C\\c3cc(C)c(O)c(C)c3)C2=O)cc(C)c1O", "test": "PI flow cytometry", "conditions": "5 µM, 24 h", "quantity": "G2/M phase cells", "result": "20.2 ± 1.66%"}
{"SMILES": "O=C1C[C@@H](c2ccccc2)Oc2c(Cc3ccccc3O)c(O)cc(O)c21", "test": "MTT", "conditions": "concentration not given, 72 h", "quantity": "cytotoxicity", "result": "inactive"}
{"SMILES": "CC(=O)N[C@@H](CC1CCCCC1)C(=O)N[C@H]1CSSC[C@@H](C(=O)N[C@@H](CCCNC(=N)N)C(N)=O)NC(=O)[C@H](CC2CCCCC2)NC(=O)[C@H](CCCNC(=N)N)NC(=O)[C@H](CCCNC(=N)N)NC(=O)[C@H](CC2CCCCC2)NC(=O)[C@H](CC(C)C)NC(=O)[C@H](CCCNC(=N)N)NC(=O)[C@@H](NC(=O)[C@H](CC2CCCCC2)NC(C)=O)CSSC[C@@H](C(=O)N[C@@H](CCCNC(=N)N)C(N)=O)NC(=O)[C@H](CC2CCCCC2)NC(=O)[C@H](CCCNC(=N)N)NC(=O)[C@H](CCCNC(=N)N)NC(=O)[C@H](CC2CCCCC2)NC(=O)[C@H](CC(C)C)NC(=O)[C@H](CCCNC(=N)N)NC1=O", "test": "fluorescence of TAMRA label", "conditions": "EC50, 3 h", "quantity": "mitochondrial fraction share", "result": "~80%"}
{"SMILES": "[Cl][Pd-]1([Cl])[S]C(Nc2ccccc2)=N[N+]1=Cc1ccc(-c2ccccc2)s1", "test": "altered cell morphology, microscopy", "conditions": "confluent cultures", "quantity": "minimal cytotoxic concentration", "result": "100 µM"}
{"SMILES": "COc1cc([C@@H]2c3cc4c(cc3[C@@H](OCc3cc(-c5ccc(C#N)cc5)no3)[C@H]3COC(=O)C23)OCO4)cc(OC)c1OC (some centres unmarked)", "test": "cell growth or viability, SRB", "conditions": "48 h", "quantity": "GI50", "result": "3.64 µM"}
{"SMILES": "COc1cc2c(Nc3ccc(NC(=O)c4ccccc4)cc3)ncnc2cc1OCCCN1CCOCC1", "test": "immunoblot", "conditions": "concentration not given, 1 h after nocodazole release", "quantity": "cyclin B1 level", "result": "not detected"}
{"SMILES": "O=C(/C=C/c1ccccc1)Oc1ccc2c(c1)O/C(=C\\C=C\\c1ccccc1)C2=O", "test": "Western blot", "conditions": "concentration not given, 24 h", "quantity": "mTOR level", "result": "no effect"}
{"SMILES": "C=C1C(=O)OC2C=C(C)CCC=C(C(=O)OC(C)C(C)(O)C(=O)OC3C(OC(C)=O)C(C(=O)OC)=CCCC(C)=CC4OC(=O)C(=C)C43)CC(OC(=O)C(C)=CC)C12 (centres unmarked)", "test": "PI flow cytometry", "conditions": "3 µM, 48 h", "quantity": "G1 phase cells", "result": "40.1%"}
{"SMILES": "CC(C)(C)c1cc2c(O)c(c1)Cc1cc(C(C)(C)C)cc(c1OCC(=O)NCc1ccncc1)Cc1cc(C(C)(C)C)cc(c1O)Cc1cc(C(C)(C)C)cc(c1OCC(=O)NCc1ccncc1)COC2", "test": "cell growth or viability, MTT", "conditions": "15 µM, 72 h", "quantity": "inhibition", "result": "64%"}
{"SMILES": "O=c1c(/C=N/NC(=S)N/N=C/c2cc(Cl)ccc2O)coc2ccccc12", "test": "DCFDA flow cytometry", "conditions": "50 µM, 24 h", "quantity": "decrease in intracellular H2O2", "result": "~45%"}
{"SMILES": "CC1=[N+]2N=C(c3ccccc3)[O][Pd-2]2([Cl])[O+]=C2Oc3ccccc3C=C21 (centres unmarked)", "test": "annexin V/PI flow cytometry", "conditions": "IC50, 24 h", "scale": "reference: untreated", "quantity": "necrotic cells", "result": "3.3 fold"}
{"SMILES": "CCCc1c(O)c(O)cc(C(=O)O)c1COC1OC(CO)C(O)C(O)C1O (centres unmarked)", "test": "Wnt/β-catenin signalling, RT-qPCR, item: AXIN2 and B9L", "conditions": "25 µM, 6 h, added: LiCl 20 mM", "scale": "reference: TBP", "quantity": "mRNA level", "result": "no effect"}
{"SMILES": "CNC(=O)c1c(C)oc2cc(Oc3ncnc4cc(OC)c(OCCCCCCC(=O)NO)cc34)ccc12", "test": "annexin V/7-AAD flow cytometry", "conditions": "0.75 µM, 48 h", "quantity": "apoptotic cells", "result": "7.69%"}
{"SMILES": "O=C(Cc1ccc(-c2ccc(OCCN3CCOCC3)cc2)cn1)NCc1ccc(F)cc1", "test": "western blot, item: phospho-FAK", "conditions": "50 nM, 6 h", "quantity": "protein level", "result": "decreased"}
{"SMILES": "COc1ccc(CCC(=O)Nc2nc3ccc(Cl)cc3s2)cc1OC", "test": "shotgun lipidomics, item: PC 32:1", "conditions": "10 µM, 18 h", "quantity": "phosphatidylcholine increase", "result": "≥ 1 mol%"}
{"SMILES": "Cc1ccc2c(Cl)cc(Cl)c([O-])c2n1.Cc1ccc2c(Cl)cc(Cl)c([O-])c2n1.[Co+2].c1ccc(-c2ccccn2)nc1", "conditions": "4.53 µM, 24 h", "quantity": "mitochondrial membrane potential", "result": "decreased"}
{"SMILES": "COc1cc(C(=O)c2[nH]c(N)nc2-c2cccs2)cc(OC)c1OC", "test": "item: phospho-histone H3", "conditions": "75 nM, 12 h", "quantity": "mitotic cells", "result": "13 ± 0.3%"}
{"note": "Some of these lines once more:"}
{"SMILES": "CC(C)(C)c1cc2c(O)c(c1)Cc1cc(C(C)(C)C)cc(c1OCC(=O)NCc1ccncc1)Cc1cc(C(C)(C)C)cc(c1O)Cc1cc(C(C)(C)C)cc(c1OCC(=O)NCc1ccncc1)COC2", "test": "cell growth or viability, MTT", "conditions": "15 µM, 72 h", "quantity": "inhibition", "result": "64%"}
{"SMILES": "O=c1c(/C=N/NC(=S)N/N=C/c2cc(Cl)ccc2O)coc2ccccc12", "test": "DCFDA flow cytometry", "conditions": "50 µM, 24 h", "quantity": "decrease in intracellular H2O2", "result": "~45%"}
